Results of several laboratories.
A part holds a random share of what one study measured. Changes are numbered by the printed parent chain.

Set 1 — target: CCNB2, cyclin fold, Cln2 fusion (human); technique: yeast growth competition, sequencing; matrix: yeast; setting: weak parent motif; baseline: not given; direction: higher = stronger binding
Starting sequence: PKN2 docking peptide (human); VSAVQKLDFSDTM; partner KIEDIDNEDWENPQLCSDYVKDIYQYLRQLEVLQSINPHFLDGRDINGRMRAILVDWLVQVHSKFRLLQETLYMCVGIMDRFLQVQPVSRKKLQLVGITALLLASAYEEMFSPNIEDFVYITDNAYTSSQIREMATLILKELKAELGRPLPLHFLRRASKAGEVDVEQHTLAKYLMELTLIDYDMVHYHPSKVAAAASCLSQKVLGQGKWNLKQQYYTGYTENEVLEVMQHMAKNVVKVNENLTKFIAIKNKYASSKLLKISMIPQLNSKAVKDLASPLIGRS
Substitution	normalised enrichment score
VSAVQKLDFSDHM [T12H]	-0.14
VSAVQKLDFIDTM [S10I]	0.0998
VSAVQKLDFSDTV [M13V]	0.196
VSAVQCLDFSDTM [K6C]	-0.00901
VSAVQKLDFSGTM [D11G]	0.116
VSAVQKLDFSFTM [D11F]	-0.365
VSAVQKLDFSDTT [M13T]	-0.0665
VSAVQKLDFSDTW [M13W]	0.33
VRAVQKLDFSDTM [S2R]	0.1
VSAVQKLDFSDSM [T12S]	0.396
ASAVQKLDFSDTM [V1A]	0.282
VSAVQKLDFSDNM [T12N]	-0.0459
VSAVQKLDFSDKM [T12K]	-0.263
CSAVQKLDFSDTM [V1C]	0.335
VSADQKLDFSDTM [V4D]	-0.541
VSAYQKLDFSDTM [V4Y]	-0.212
LSAVQKLDFSDTM [V1L]	0.142
VSLVQKLDFSDTM [A3L]	1.08
VSAVQKLDFSDTN [M13N]	0.183
VSAVQKLDFYDTM [S10Y]	-0.075
VSFVQKLDFSDTM [A3F]	-0.063
VSAVQKIDFSDTM [L7I]	-0.532
VSAVQKLDFSDYM [T12Y]	0.255
VSCVQKLDFSDTM [A3C]	1.1
VGAVQKLDFSDTM [S2G]	-0.181

Set 2 — technique: protein binding microarray; form: double-stranded DNA, one strand shown; matrix: in vitro; tested at: not given; baseline: not given; direction: higher = stronger binding
Target: Histone acetyltransferase KAT6A, winged helix 2, GST fusion (KAT6A, Homo sapiens, UniProt Q92794, residues 85-181)
Setting: 8-mer, flanks averaged, mean of 2 arrays, mostly near background
Construct (chain): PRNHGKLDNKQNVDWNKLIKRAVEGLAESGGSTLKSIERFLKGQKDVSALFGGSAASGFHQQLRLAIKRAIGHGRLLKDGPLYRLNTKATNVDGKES
Oligonucleotide	E-score
GGCCCAGA	-0.0121
CGTACATC	-0.298
CCAGATCG	0.00365
AACCCCGT	-0.14
AGATTTTG	0.0977
ACTAAGTC	-0.146
CGATCTAA	0.0641
CAGCAGGC	0.218
CATCGGAC	0.124
AGTTTATG	-0.00259
GCGGACCC	0.162
AGCTTACC	-0.0709
TGAGCAAA	0.0902
AGCCCCGG	0.212
CACTTTGG	0.0818
AGAGCTCC	-0.0438

Set 3 — technique: RNA Bind-n-Seq; form: RNA; matrix: in vitro; tested at: 1 µM; setting: whole 134-nt RNA, ends assumed; together with: 150 mM KCl; baseline: input library; direction: higher = stronger binding
Target: Ras GTPase-activating protein-binding protein 1, RRM domain (G3BP1, Homo sapiens, UniProt Q13283)
Chain of UniProt Q13283 (whole entry, looked up): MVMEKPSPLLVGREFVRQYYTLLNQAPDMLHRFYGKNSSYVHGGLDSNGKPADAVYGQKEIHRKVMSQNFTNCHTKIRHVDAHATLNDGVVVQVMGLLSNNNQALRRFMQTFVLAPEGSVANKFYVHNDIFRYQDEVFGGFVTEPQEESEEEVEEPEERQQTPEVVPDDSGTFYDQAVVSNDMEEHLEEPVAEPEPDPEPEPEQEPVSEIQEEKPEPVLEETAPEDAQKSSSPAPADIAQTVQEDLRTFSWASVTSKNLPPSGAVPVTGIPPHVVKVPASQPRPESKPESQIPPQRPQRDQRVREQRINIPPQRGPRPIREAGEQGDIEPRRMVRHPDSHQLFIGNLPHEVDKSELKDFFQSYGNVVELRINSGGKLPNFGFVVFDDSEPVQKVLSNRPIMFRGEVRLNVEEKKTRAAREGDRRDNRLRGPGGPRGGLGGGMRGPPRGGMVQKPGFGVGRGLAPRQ
Oligonucleotide	log2 enrichment
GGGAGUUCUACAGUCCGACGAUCCUGUGCUACACAUCGUAUGUACCGAAUCGGGGAAAGGGGUUUUUUUGGGGAAAAAAAGGGGAAAGUAUUAUGUUACGCCGUUCGGAUCUGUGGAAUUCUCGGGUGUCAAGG	0.43
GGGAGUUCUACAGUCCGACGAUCUUCCUCAAGUCCUGUGCUACACAUCGUAUGUACCGAAUCGGCGGCGGCGGGAAAGUAUUAUGUUACGCCGUUCGGAUCUGCACUUCCAGCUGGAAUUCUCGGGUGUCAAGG	-0.164
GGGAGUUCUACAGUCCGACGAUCACCAUGCGGGUGGGCAUCUUUGGGAAGUGGGGCAAGGGGGGGAUAGGGAGGGGGGUAACACUUUGGGAACAGGUGGUCCCAGGUCGUUUCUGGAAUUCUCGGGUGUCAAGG	-0.658
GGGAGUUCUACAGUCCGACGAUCUGGGAGGUGGAUUUUGUUUAUUUUUUUAGCUCAUUUCCAGAGGUGGGAAUUUUUUUUUAAUAUGUGUCAUGAAUAAAGUUGUUUUUGAAAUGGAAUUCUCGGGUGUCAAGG	1.43
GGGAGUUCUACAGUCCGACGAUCUCCUCAAGUCCUGUGCUACACAUCGUAUGUACCGAAUCGGGUGGUGGUGGGGAAAGUAUUAUGUUACGCCGUUCGGAUCUGCACUUCCAGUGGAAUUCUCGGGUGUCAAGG	-0.106
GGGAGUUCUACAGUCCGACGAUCAAGUCCUGUGCUACACAUCGUAUGUACCGAAUCGGGAAAAAGGGAGGGAAAAAGGGAAAGUAUUAUGUUACGCCGUUCGGAUCUGCACUUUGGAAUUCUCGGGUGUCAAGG	0.54
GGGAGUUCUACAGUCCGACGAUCUUGUCUACAGAACUAGACAGUACGGAUGGUGCCAAAGUUUUUAGUAAACAACCAGGAAGAAUCCAAAGAGUAGCAAGAGGAUCGGGUGUAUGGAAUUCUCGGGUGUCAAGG	-0.351
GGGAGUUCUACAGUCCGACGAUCUCCUGUGCUACACAUCGUAUGUACCGAAUCGGGGUUUUUGGGGUUUUUGGUUUUUGGGGAAAGUAUUAUGUUACGCCGUUCGGAUCUGCAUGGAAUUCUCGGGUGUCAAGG	-0.169
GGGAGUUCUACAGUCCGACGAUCUGGGAGGUGGAUUUUGUUUAUUUUUUUAGCCCAUUUCCAGGGGUGGGAAUUUUUUUUUAAUAUGUGUCAUGAAUAAAGUUGUUUUUGAAAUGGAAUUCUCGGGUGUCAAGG	1.49
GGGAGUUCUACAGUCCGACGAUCAGUCCUGUGCUACACAUCGUAUGUACCGAAUCGGAAAAAGGGAAAAAGGAAAAAGGGGAAAGUAUUAUGUUACGCCGUUCGGAUCUGCACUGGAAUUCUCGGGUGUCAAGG	-0.00933
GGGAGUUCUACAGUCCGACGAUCACCAUGCAAGUGGGCAUCUUUGGGAAGUGGGGCAAGGGGGGGAUAGGGAGGGGGGUAACACUUUGGGAACAGGUGGUCCCAGGUCGUUUCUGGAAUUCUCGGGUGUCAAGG	-0.442
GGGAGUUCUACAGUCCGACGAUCUAACUUUAGAGGAGGAUCUGAUGGAUAUGGCAGUGGACGUGGAUUUGGGGAUGGCUAUAAUGGUUAUGGAGGAGGACCUGGAGGUGGCAAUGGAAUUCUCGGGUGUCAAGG	-0.373
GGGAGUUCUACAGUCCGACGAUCUUUUACAUUUAUACACAUGUAUUGGCUUCCUUUUACACUAUUAGGCGGUCAAGAAGCAGAUCGAGACGGCGGUCACAUUCUAAGUCUAGGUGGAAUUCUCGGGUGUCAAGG	-0.004
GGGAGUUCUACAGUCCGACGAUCCUCAAGUCCUGUGCUACACAUCGUAUGUACCGAAUCGGGGAAGGAAGGAAGGGGAAAGUAUUAUGUUACGCCGUUCGGAUCUGCACUUCCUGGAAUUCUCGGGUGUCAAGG	-0.282

Other studies, line by line
Molecule	target	test	system	conditions	how to read	quantity	result
PhoQ, residues 284 288 289 292 302 303 SLANIV	PhoP, residues 12 14 15 18 19 NYFTV (Escherichia coli, UniProt P23836)	Sort-seq, measured: YFP reporter	E. coli	PhoQ-PhoP variant library, together with: 10 µM Mg2+	baseline: high Mg2+ state, higher = stronger signaling	fold induction	11
